Experimental data collected from several papers.
Each numbered part is a random draw from the data of one study; scales do not carry over between parts. Changes are numbered by the printed parent chain.

Set 1 — technique: RNA Bind-n-Seq; molecule type: RNA; medium: in vitro; tested at: 20 nM; notes: 6-mer, flanks averaged, single round; together with: 150 mM KCl; baseline: input library; reading: higher = stronger binding
Target: TAR DNA-binding protein 43, full length, His tag (TARDBP, Homo sapiens, UniProt Q13148, residues 1-414)
| Sequence | 6-mer enrichment (R) |
| --- | --- |
| UAGACA | 0.673 |
| UGCUCC | 0.625 |
| UUUUAA | 0.682 |
| UAGUCG | 0.776 |
| GGGAUC | 1.79 |
| UUGCGU | 0.856 |
| GUGCGC | 1.46 |

Set 2 — target: MAFG, bZIP domain (human); technique: DHFR protein complementation; medium: yeast; baseline: wild-type JUN-FOS pair; reading: higher = stronger binding
Notes: single substitutions, most at no-binding floor
Starting sequence: JUN, bZIP domain (human); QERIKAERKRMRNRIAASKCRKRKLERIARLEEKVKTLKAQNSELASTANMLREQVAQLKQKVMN; partner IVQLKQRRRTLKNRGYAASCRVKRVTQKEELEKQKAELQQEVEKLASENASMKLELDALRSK
| Change | binding fitness [natural log] |
| --- | --- |
| S43A | -1.3 |
| K39A | -1.17 |
| S43I | -1.2 |

Set 3 — technique: RNA Bind-n-Seq; molecule type: RNA; medium: in vitro; tested at: 200 nM; notes: whole 134-nt RNA, ends assumed; together with: 150 mM LiCl; baseline: input library; reading: higher = stronger binding; library: 7-deaza-guanosine replaces G
Target: Fragile X messenger ribonucleoprotein 1, C-terminal low-complexity region (Fmr1, Mus musculus, UniProt P35922)
| Sequence | log2 enrichment |
| --- | --- |
| GGGAGUUCUACAGUCCGACGAUCCACAGACAACACGCACCCACACAGACACAGAGGGAAAAGGUUGGGAUGGGGACAGGGUGCACAGCAGGGCGGGGUAGGACCCCAGCCCCUUGGAAUUCUCGGGUGUCAAGG | -1.44 |
| GGGAGUUCUACAGUCCGACGAUCCUCAACGUUGACAGUAAUGAACAAGGCUCCUAUGUAGUGGCCAUGGAAACCUUUACCAACUUAGGACCCAUUGUCGAUAUGUGCGUGGUGUGGAAUUCUCGGGUGUCAAGG | -2.01 |
| GGGAGUUCUACAGUCCGACGAUCUGGGAGCUGGAUUUUGUUUAUUUUUUUAGCUCAUUUCCAGGGGUGGGAAUUUUUUUUUAAUAUGUGUCAUGAAUAAAGUUGUUUUUGAAAUGGAAUUCUCGGGUGUCAAGG | -0.881 |
| GGGAGUUCUACAGUCCGACGAUCAAGUCCUGUGCUACACAUCGUAUGUACCGAAUCGGCCCCGGGGCCCCGGGCCCCGGAAAGUAUUAUGUUACGCCGUUCGGAUCUGCACUUUGGAAUUCUCGGGUGUCAAGG | -2.47 |

Further values, each from its own experiment
| Substance | target | assay | test system | setting | scale | endpoint | value |
| --- | --- | --- | --- | --- | --- | --- | --- |
| PhoQ, residues 284 288 289 292 302 303 SLSLLA | PhoP, residues 12 14 15 18 19 LHSVW (Escherichia coli, UniProt P23836) | Sort-seq, item: YFP reporter | E. coli | PhoQ-PhoP variant library, together with: 10 µM Mg2+ | baseline: high Mg2+ state, higher = stronger signaling | fold induction | 5.67 |

A few entries again (set 2):
| Change | binding fitness [natural log] |
| --- | --- |
| S43A | -1.3 |
